{"data": "Measurements pooled from the literature", "FGFR1": "Fibroblast growth factor receptor 1 (FGFR1, Homo sapiens, UniProt P11362)", "FGFR1 V561M": "Fibroblast growth factor receptor 1 (FGFR1, Homo sapiens, UniProt P11362, V561M)", "note": "Compare with care: the assays were run in different laboratories. Several values in a cell are separate wells, animals, samples, runs or records."}
{"Structure (SMILES)": "CCN1CCN(Cc2ccc(C(=O)Nc3ccc(C)c(NCc4cnc5[nH]ccc5c4OC)c3)cc2C(F)(F)F)CC1", "target": "FGFR1", "test": "binding, competition with immobilised ligand", "setting": "1 µM", "endpoint": "remaining binding", "result": "0.95%"}
{"Structure (SMILES)": "C=CC(=O)Nc1cccc(-c2cnc3[nH]cc(C(=O)NC(C)(C)C)c3n2)c1", "target": "FGFR1", "test": "enzyme activity, inhibitor", "setting": "0.1 µM", "endpoint": "inhibition", "result": "23%"}
{"Structure (SMILES)": "Cc1cnc2nc1Nc1cccc(c1)COC/C=C/COCc1cc(ccc1OCCN1CCOCC1)N2", "target": "FGFR1", "test": "binding", "setting": "0.1 µM", "endpoint": "remaining binding", "result": "68%"}
{"Structure (SMILES)": "C[C@H]1CN(C(=O)c2cn(-c3ccnc(N)n3)c3cc(C#CC4(O)CCCCC4)ccc23)CCN1", "target": "FGFR1", "test": "enzyme activity, inhibitor, FRET", "setting": "1 µM", "endpoint": "inhibition", "result": "-6%"}
{"Structure (SMILES)": "COc1c(Cl)cccc1Nc1c(-c2ccncc2C#C[C@@]2(C)CCCN2C(=O)/C=C/CN(C)C)[nH]c2c1C(=O)NCC2", "target": "FGFR1", "test": "cell-free assay, competition with immobilised ligand", "setting": "3 µM", "endpoint": "remaining binding", "result": "95%"}
{"Structure (SMILES)": "COc1ccc(C(=O)/C=C/c2ccccc2-c2c[nH]c3ccc(C#N)cc23)c(O)c1", "target": "FGFR1", "test": "enzyme activity, inhibitor", "setting": "20 µM", "endpoint": "inhibition", "result": "34%"}
{"Structure (SMILES)": "COc1c(OCCCN2CCOCC2)ccc2c1N=C(NC(=O)c1cnc(N)nc1)N1CCN=C21", "target": "FGFR1", "test": "kinase activity, inhibitor", "setting": "1 µM", "how to read": "relative to: untreated control", "endpoint": "remaining activity", "result": "106%"}
{"Structure (SMILES)": "CNC(=O)C1CCN(c2cc(C)c(F)cc2NC(=O)c2ccc(-c3cc(O)ccc3C)c(C)c2)CC1", "target": "FGFR1", "test": "binding, competition with immobilised ligand", "setting": "1 µM", "endpoint": "remaining binding", "result": "94%"}
{"Structure (SMILES)": "Cc1nc2c(F)cc(-c3nc(Nc4ccc(CNC(=O)CCCCCCC(=O)NO)cc4)ncc3F)cc2n1C(C)C", "target": "FGFR1", "test": "enzyme activity, inhibitor", "setting": "1 µM", "endpoint": "inhibition", "result": "66%"}
{"Structure (SMILES)": "CN1CCN(c2ccc(Nc3ncc(Cl)c(Nc4ccccc4P(C)(C)=O)n3)cc2Br)CC1", "target": "FGFR1", "test": "enzyme activity, inhibitor", "setting": "0.1 µM", "endpoint": "inhibition", "result": "45.7%"}
{"Structure (SMILES)": "Cc1cccc(-c2ccc3nc(NC(=O)C4CCCCC4)nn3c2)c1", "target": "FGFR1", "test": "enzyme activity, Dundee kinase panel", "setting": "10 µM", "endpoint": "remaining activity", "result": "111%"}
{"Structure (SMILES)": "COCC12C(=O)NC3C4(C(OC)CC1O)C1CC5(O)C(OC)C(O)C(OC(C)=O)(C1C5OC(=O)c1ccccc1)C3(O)C(OC)C24 (centres unmarked)", "target": "FGFR1 V561M", "test": "kinase activity, inhibitor, ProQinase kinase profiling", "setting": "25 µM", "how to read": "relative to: control", "endpoint": "remaining activity", "result": "102% and 94%"}
{"Structure (SMILES)": "Nc1ncc2c(n1)-c1c([nH]c3ccc(C4=CCOCC4)cc13)CCC2", "target": "FGFR1", "test": "binding, competition with immobilised ligand", "setting": "1 µM", "endpoint": "remaining binding", "result": "95%"}
{"Structure (SMILES)": "CN1CCN(Cc2ccc(-c3ccc(CO[C@H]4CCC[C@@H]4NC(=O)c4cc(-c5cnn(C)c5)cnc4N)cc3)cc2)CC1", "target": "FGFR1 V561M", "test": "enzyme activity, inhibitor", "setting": "0.1 µM", "endpoint": "inhibition", "result": "3%"}
{"Structure (SMILES)": "Cc1ccc(-c2c(/C=C(\\C#N)C(=O)NC(C)C)n(CCCO)c3ncnc(N)c23)cc1", "target": "FGFR1", "test": "cell-free assay, competition with immobilised ligand", "setting": "1 µM", "endpoint": "remaining binding", "result": "97%"}
{"Structure (SMILES)": "Cc1cccc(-c2ccc3nc(NC(=O)C4CCOCC4)nn3c2)c1", "target": "FGFR1", "test": "enzyme activity, Dundee kinase panel", "setting": "10 µM", "endpoint": "remaining activity", "result": "88%"}
{"Structure (SMILES)": "COc1ccc(NC(=O)Nc2ccc3c(c2)C(=O)N(C(C)CO)CC(C)C(CN(C)Cc2ccc4c(c2)OCO4)O3)cc1 (centres unmarked)", "target": "FGFR1 V561M", "test": "kinase activity", "setting": "0.03 µM", "how to read": "relative to: control", "endpoint": "remaining activity", "result": "90%"}
{"Structure (SMILES)": "CC(C)=CC1OC(C)(C)C2C=C3C(=O)C(Cl)=CC(O)C3C3C(O)C4OC4C(=O)C132 (centres unmarked)", "target": "FGFR1", "test": "cell-free assay, competition with immobilised ligand", "setting": "10 µM", "endpoint": "remaining binding", "result": "76%"}
{"Structure (SMILES)": "O=C=[N][Ru-4]123([n]4c5ccc(O)cc5c5c6c(c7cc(F)c[n+]1c7c54)C(=O)NC6=O)[S+]1CC[S+]2CC[S+]3CC1 (centres unmarked)", "target": "FGFR1 V561M", "test": "enzyme activity", "setting": "100 nM, human enzyme, together with: 10 µM ATP", "how to read": "relative to: untreated", "endpoint": "remaining activity", "result": "83%"}
{"Structure (SMILES)": "Cc1cccc(O[C@H]2CCC[C@@H](C(C)CNCc3ccncc3)C2)c1 (relative stereo)", "target": "FGFR1", "test": "cell-free assay", "setting": "10 µM", "endpoint": "inhibition", "result": "1%"}
{"Structure (SMILES)": "NC(=O)[C@@H](O)C[C@H]1CCc2sc3ncnc(O[C@H]4CC[C@H](N5CCOCC5)CC4)c3c21", "target": "FGFR1", "test": "enzyme activity, inhibitor", "setting": "10 µM", "endpoint": "inhibition", "result": "53%"}
{"Structure (SMILES)": "CNC(=O)C[C@H](Cc1ccc(C#N)cc1)NC(=O)c1cc(-c2ccc(CN[C@H](C)c3ccc(C)cc3)o2)ccc1Cl", "target": "FGFR1", "test": "enzyme activity, inhibitor", "setting": "1 µM", "endpoint": "activity vs control", "result": "81%"}
{"Structure (SMILES)": "COc1cc(Nc2nccc(-c3cnn4nc(OC)ccc34)n2)cc(C(F)(F)F)c1", "target": "FGFR1", "test": "binding, competition with immobilised ligand", "setting": "1 µM", "endpoint": "remaining binding", "result": "93%"}
{"note": "A few entries again:"}
{"Structure (SMILES)": "CNC(=O)C[C@H](Cc1ccc(C#N)cc1)NC(=O)c1cc(-c2ccc(CN[C@H](C)c3ccc(C)cc3)o2)ccc1Cl", "target": "FGFR1", "test": "enzyme activity, inhibitor", "setting": "1 µM", "endpoint": "activity vs control", "result": "81%"}
{"Structure (SMILES)": "Cc1cnc2nc1Nc1cccc(c1)COC/C=C/COCc1cc(ccc1OCCN1CCOCC1)N2", "target": "FGFR1", "test": "binding", "setting": "0.1 µM", "endpoint": "remaining binding", "result": "68%"}
